Measured values pooled from the literature.
Compare with care: the assays were run in different laboratories. Several values in a cell are separate wells, animals, samples, runs or records. Numbers after ± are the reported error. Converted amounts (≈) assume the structure as drawn.
Chain of UniProt Q06124 (whole entry, looked up): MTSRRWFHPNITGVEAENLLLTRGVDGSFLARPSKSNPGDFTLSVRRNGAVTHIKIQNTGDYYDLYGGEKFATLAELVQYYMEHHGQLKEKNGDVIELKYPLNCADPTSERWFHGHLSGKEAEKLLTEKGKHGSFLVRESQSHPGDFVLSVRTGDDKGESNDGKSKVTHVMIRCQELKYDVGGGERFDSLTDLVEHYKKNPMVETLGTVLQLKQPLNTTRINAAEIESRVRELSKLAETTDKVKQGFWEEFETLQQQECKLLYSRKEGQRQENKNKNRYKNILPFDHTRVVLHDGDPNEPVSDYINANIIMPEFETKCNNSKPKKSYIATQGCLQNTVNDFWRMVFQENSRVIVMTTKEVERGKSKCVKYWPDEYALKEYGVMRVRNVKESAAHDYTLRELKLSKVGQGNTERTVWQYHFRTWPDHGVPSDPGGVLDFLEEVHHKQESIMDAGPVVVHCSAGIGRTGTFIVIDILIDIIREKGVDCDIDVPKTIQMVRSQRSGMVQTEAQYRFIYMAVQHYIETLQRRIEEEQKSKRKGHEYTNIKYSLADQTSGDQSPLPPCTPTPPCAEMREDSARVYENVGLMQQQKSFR

| SMILES | target or system | assay | test system | conditions | endpoint | value |
| --- | --- | --- | --- | --- | --- | --- |
| C=CS(=O)(=O)Oc1ccccc1 | PTPN11 (Homo sapiens, UniProt Q06124) | enzyme activity, covalent inhibitor |  | added: pNPP substrate | kinact/KI | 211 M⁻¹ min⁻¹ and 221 M⁻¹ min⁻¹ |
| Cc1ccc(N=Nc2c(N)nn3c(-c4ccco4)cc(-c4ccc(OCc5ccccc5)cc4)nc23)cc1 | Escherichia coli |  | ATCC 25955 |  | MBC/MIC ratio | 4 |
| COCCOc1cnc2ccn([C@H](C)c3nnc4c(F)cc(-c5cnn(C)c5)cn34)c(=O)c2c1 |  |  | patients, plasma | oral, 25 mg once daily, day 1 | half-life | 360 min |
| Cc1ccc(N=Nc2c(N)nn3c(-c4ccc(C)cc4)cc(-c4ccc(OCc5ccccc5)cc4)nc23)cc1 | Bacillus pumilus | broth microdilution | MTCC 2296 |  | MBC/MIC ratio | 2 |
| O=C(NCc1ccc(O)cc1)c1cn(Cc2ccc(F)cc2)c2ccc(Oc3ccccc3)cc2c1=O | MDA-MB-468 |  |  | 72 h | CC50 | 67.2 ± 4.2 µM |
| COc1cc(/C=N/NC(=S)NN=Cc2ccncc2)ccc1Oc1ccnc2cc(Cl)ccc12 | human lysosomal acid alpha-glucosidase | inhibitor |  | added: pNPG substrate | IC50 | 11.7 ± 0.12 µg/mL (≈ 23.7 µM) |
| O=C(NCc1ccccc1)c1cn(Cc2ccc(C(F)(F)F)cc2)c2ccc(Oc3ccccc3)cc2c1=O | MDA-MB-231/LM2-4 | cytotoxicity |  | 10% FBS | CC50 | 5.52 µM |
| COc1cc(/C=N/NC(=S)NN=Cc2sccc2C)ccc1Oc1ccnc2cc(Cl)ccc12 | human lysosomal acid alpha-glucosidase | inhibitor |  | added: pNPG substrate | IC50 | 8.12 ± 0.34 µg/mL (≈ 15.9 µM) |
